{"data": "Experimental data from different studies", "note": "Parts stem from different laboratories: compare values within a part only.", "UniProt Q16288, sequence (whole entry, looked up)": "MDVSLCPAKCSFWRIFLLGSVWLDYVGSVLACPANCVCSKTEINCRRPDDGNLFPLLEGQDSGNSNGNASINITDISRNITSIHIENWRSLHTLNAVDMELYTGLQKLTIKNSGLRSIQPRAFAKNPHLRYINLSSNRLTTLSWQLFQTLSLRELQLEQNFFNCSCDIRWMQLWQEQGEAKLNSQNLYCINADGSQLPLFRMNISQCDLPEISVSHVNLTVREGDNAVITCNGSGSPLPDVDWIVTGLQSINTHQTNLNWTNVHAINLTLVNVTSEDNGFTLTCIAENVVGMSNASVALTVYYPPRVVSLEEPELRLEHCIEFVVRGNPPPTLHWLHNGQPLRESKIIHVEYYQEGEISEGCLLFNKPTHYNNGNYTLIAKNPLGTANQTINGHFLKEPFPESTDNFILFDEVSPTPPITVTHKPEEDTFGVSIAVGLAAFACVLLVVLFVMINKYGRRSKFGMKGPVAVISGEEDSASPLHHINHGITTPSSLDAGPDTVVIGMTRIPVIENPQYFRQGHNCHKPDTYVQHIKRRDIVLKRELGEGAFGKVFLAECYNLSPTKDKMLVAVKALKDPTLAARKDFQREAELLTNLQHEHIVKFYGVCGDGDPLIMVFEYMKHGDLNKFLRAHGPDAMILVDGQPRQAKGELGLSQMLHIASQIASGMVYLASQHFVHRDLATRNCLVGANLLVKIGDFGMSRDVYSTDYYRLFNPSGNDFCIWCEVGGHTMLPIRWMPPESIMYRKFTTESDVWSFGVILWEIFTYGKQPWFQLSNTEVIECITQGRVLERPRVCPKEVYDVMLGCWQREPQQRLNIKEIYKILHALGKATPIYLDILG", "UniProt Q9UK32, sequence (whole entry, looked up)": "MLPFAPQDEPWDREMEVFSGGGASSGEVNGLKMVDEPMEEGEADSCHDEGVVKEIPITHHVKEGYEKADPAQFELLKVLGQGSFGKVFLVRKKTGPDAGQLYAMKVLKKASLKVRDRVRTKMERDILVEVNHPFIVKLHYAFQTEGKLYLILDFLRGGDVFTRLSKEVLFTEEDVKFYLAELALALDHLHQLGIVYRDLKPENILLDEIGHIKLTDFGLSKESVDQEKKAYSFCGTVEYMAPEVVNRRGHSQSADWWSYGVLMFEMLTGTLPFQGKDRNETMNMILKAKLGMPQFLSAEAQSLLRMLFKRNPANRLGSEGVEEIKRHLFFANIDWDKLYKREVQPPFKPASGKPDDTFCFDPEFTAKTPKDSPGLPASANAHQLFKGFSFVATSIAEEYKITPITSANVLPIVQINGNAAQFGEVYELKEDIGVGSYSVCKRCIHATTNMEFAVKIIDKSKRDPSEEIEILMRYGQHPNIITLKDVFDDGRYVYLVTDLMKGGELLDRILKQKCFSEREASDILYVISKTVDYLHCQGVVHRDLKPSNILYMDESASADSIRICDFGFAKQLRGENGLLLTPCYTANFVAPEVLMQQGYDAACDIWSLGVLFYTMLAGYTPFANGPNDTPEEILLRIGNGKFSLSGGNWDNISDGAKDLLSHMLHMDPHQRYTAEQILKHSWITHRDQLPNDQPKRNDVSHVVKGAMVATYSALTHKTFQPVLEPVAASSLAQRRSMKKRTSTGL", "UniProt P42684, sequence (whole entry, looked up)": "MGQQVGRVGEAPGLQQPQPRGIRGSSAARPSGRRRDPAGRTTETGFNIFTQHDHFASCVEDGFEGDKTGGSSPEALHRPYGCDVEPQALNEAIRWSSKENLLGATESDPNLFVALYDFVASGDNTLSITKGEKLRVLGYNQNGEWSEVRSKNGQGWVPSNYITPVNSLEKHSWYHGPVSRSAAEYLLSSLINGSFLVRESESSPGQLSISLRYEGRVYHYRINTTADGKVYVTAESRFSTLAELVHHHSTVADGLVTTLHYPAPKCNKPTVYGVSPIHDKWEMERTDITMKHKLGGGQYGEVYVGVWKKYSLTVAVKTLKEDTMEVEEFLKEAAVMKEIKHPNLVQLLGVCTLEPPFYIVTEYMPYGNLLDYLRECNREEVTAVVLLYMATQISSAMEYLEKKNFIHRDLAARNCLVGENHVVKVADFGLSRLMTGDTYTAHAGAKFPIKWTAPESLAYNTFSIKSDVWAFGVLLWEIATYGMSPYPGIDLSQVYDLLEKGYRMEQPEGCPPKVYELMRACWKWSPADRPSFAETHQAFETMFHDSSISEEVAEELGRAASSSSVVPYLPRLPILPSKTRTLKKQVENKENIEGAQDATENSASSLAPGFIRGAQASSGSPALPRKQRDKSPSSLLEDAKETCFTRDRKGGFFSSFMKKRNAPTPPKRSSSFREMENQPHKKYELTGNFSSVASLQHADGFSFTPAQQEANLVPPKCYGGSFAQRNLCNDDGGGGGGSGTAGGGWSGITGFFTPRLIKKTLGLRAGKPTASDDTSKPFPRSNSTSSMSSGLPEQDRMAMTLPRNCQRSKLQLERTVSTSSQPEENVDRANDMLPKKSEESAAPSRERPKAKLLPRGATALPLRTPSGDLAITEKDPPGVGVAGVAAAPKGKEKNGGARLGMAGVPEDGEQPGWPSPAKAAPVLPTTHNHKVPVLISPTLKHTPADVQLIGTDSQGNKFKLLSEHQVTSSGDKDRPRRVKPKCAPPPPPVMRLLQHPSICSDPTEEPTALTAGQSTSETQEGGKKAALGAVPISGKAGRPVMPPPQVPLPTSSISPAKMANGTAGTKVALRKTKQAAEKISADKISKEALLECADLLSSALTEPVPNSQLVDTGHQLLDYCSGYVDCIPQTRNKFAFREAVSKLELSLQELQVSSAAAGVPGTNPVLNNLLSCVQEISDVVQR", "UniProt P54764, sequence (whole entry, looked up)": "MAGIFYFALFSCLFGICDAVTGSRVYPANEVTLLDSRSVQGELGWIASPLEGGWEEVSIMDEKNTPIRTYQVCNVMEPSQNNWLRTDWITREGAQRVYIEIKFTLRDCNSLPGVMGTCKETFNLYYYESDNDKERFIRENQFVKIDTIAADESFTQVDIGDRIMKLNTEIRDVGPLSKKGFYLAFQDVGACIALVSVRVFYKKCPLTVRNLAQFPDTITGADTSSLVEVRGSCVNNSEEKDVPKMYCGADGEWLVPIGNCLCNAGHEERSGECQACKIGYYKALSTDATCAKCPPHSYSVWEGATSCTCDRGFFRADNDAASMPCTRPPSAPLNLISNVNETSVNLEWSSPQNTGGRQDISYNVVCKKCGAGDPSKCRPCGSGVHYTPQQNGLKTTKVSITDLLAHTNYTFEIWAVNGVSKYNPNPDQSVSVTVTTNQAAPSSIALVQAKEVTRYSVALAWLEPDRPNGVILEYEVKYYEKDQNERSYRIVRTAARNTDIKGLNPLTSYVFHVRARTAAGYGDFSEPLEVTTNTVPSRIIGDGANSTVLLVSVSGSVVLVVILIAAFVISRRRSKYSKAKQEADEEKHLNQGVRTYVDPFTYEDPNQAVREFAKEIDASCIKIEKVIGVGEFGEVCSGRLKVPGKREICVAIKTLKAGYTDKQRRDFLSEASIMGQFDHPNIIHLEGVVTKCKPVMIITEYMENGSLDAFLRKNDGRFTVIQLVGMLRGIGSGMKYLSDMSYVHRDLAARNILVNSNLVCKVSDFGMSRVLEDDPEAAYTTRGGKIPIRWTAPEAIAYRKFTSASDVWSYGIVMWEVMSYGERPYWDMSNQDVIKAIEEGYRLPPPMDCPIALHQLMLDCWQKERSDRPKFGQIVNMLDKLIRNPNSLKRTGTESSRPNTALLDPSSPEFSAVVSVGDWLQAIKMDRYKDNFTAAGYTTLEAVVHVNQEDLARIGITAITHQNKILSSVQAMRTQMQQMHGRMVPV", "UniProt P09769, sequence (whole entry, looked up)": "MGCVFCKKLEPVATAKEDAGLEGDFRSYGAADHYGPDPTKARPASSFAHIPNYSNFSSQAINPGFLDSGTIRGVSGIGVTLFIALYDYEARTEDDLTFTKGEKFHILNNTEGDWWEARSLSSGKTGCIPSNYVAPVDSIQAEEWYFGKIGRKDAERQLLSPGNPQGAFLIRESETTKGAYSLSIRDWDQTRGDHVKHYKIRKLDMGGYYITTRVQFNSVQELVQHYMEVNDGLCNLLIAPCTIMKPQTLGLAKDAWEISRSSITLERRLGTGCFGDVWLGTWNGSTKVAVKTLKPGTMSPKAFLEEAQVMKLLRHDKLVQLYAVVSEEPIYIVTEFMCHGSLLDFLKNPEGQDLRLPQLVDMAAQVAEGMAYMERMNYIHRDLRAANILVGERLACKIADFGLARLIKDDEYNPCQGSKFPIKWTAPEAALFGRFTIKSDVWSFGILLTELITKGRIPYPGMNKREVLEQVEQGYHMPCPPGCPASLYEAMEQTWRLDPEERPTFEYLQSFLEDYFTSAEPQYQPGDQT"}
{"data": "Study 1", "SMILES": "C=CC(=O)N1CCC([C@@H]2CCNc3c(C(N)=O)c(-c4ccc(Oc5ccccc5)cc4)nn32)CC1", "tested at": "1 µM"}
{"target": "SGK3 (Homo sapiens, UniProt Q96BR1)", "observed": "enzyme activity", "mode": "inhibitor", "inhibition": "12%"}
{"target": "EGFR (Homo sapiens, UniProt P00533, T790M)", "observed": "cell-free assay", "inhibition": "92%"}
{"target": "Ribosomal protein S6 kinase alpha-6, N-terminal kinase domain (RPS6KA6, Homo sapiens, UniProt Q9UK32)", "mode": "inhibitor", "inhibition": "24%"}
{"target": "NLK (Homo sapiens, UniProt Q9UBE8)", "observed": "enzyme activity", "mode": "inhibitor", "inhibition": "44%"}
{"target": "NTRK3 (Homo sapiens, UniProt Q16288)", "observed": "cell-free assay", "inhibition": "0%"}
{"target": "BMPR1B (Homo sapiens, UniProt O00238)", "observed": "enzyme activity", "mode": "inhibitor", "inhibition": "27%"}
{"target": "RET (Homo sapiens, UniProt P07949, V804L)", "observed": "enzyme activity", "mode": "inhibitor", "inhibition": "9%"}
{"target": "PIP5K1C (Homo sapiens, UniProt O60331)", "mode": "inhibitor", "inhibition": "7%"}
{"target": "EPHB6 (Homo sapiens, UniProt O15197)", "observed": "cell-free assay", "inhibition": "29%"}
{"target": "ABL2 (Homo sapiens, UniProt P42684)", "observed": "enzyme activity", "mode": "inhibitor", "inhibition": "8%"}
{"data": "Study 2", "cell line": "HaCaT", "tested at": "100 µM", "time": "18 h"}
{"SMILES": "COCCOC(=O)C1=C(C)NC(C)=C(C(=O)OC(C)C)C1c1cccc([N+](=O)[O-])c1 (centres unmarked)", "viability": "50.5%"}
{"SMILES": "CC(C)[C@H]1CC[C@H](C(=O)N[C@H](Cc2ccccc2)C(=O)O)CC1", "viability": "116%"}
{"SMILES": "CC(=O)c1ccc(S(=O)(=O)NC(=O)NC2CCCCC2)cc1", "viability": "107%"}
{"SMILES": "NCCS", "viability": "99.2%"}
{"SMILES": "CC(=O)Nc1ncc([N+](=O)[O-])s1", "viability": "98.6%"}
{"SMILES": "CCCC(=O)O[C@]1(C(=O)CO)CC[C@H]2[C@@H]3CCC4=CC(=O)CC[C@]4(C)[C@H]3[C@@H](O)C[C@@]21C", "viability": "98.9%"}
{"SMILES": "CO[C@H]1/C=C/O[C@@]2(C)Oc3c(C)c(O)c4c(c3C2=O)C2=NC3(CCN(CC(C)C)CC3)NC2=C(NC(=O)/C(C)=C\\C=C\\[C@H](C)[C@H](O)[C@@H](C)[C@@H](O)[C@@H](C)[C@H](OC(C)=O)[C@@H]1C)C4=O", "viability": "88.3%"}
{"SMILES": "Cc1c(NC(=O)c2cccnc2)c(=O)n(-c2ccccc2)n1C", "viability": "107%"}
{"SMILES": "C=C1c2cccc(O)c2C(=O)C2=C(O)[C@]3(O)C(=O)C(C(N)=O)=C(O)[C@@H](N(C)C)[C@@H]3[C@@H](O)[C@H]12", "viability": "111%"}
{"SMILES": "C[C@H](CCC(=O)O)[C@H]1CC[C@H]2[C@@H]3C(=O)C[C@@H]4CC(=O)CC[C@]4(C)[C@H]3CC(=O)[C@]12C", "viability": "94.6%"}
{"data": "Study 3", "SMILES": "COc1cccc(CNC(=O)c2nc3scc(COCc4ccc(C(=O)O)cc4)c3c(=O)[nH]2)c1", "tested at": "1 µM"}
{"target": "MAPK8 (Homo sapiens, UniProt P45983)", "observed": "cell-free assay", "method": "competition with immobilised ligand", "remaining binding [%]": 100}
{"target": "ACVRL1 (Homo sapiens, UniProt P37023)", "observed": "cell-free assay", "method": "competition with immobilised ligand", "remaining binding [%]": 100}
{"target": "COQ8A (Homo sapiens, UniProt Q8NI60)", "observed": "cell-free assay", "method": "competition with immobilised ligand", "remaining binding [%]": 100}
{"target": "EPHA4 (Homo sapiens, UniProt P54764)", "observed": "cell-free assay", "method": "competition with immobilised ligand", "remaining binding [%]": 91.1}
{"target": "NUAK1 (Homo sapiens, UniProt O60285)", "observed": "cell-free assay", "method": "competition with immobilised ligand", "remaining binding [%]": 86.6}
{"target": "MARK1 (Homo sapiens, UniProt Q9P0L2)", "observed": "cell-free assay", "method": "competition with immobilised ligand", "remaining binding [%]": 96.7}
{"target": "MAP3K20 (Homo sapiens, UniProt Q9NYL2)", "observed": "cell-free assay", "method": "competition with immobilised ligand", "remaining binding [%]": 85.5}
{"target": "CDK18 (Homo sapiens, UniProt Q07002)", "observed": "cell-free assay", "method": "competition with immobilised ligand", "remaining binding [%]": 100}
{"target": "STK17A (Homo sapiens, UniProt Q9UEE5)", "observed": "cell-free assay", "method": "competition with immobilised ligand", "remaining binding [%]": 73.1}
{"target": "STK32B (Homo sapiens, UniProt Q9NY57)", "observed": "cell-free assay", "method": "competition with immobilised ligand", "remaining binding [%]": 93.4}
{"target": "CDC42BPG (Homo sapiens, UniProt Q6DT37)", "method": "competition binding", "remaining binding [%]": 99.4}
{"target": "FGR (Homo sapiens, UniProt P09769)", "observed": "cell-free assay", "method": "competition with immobilised ligand", "remaining binding [%]": 90}
{"target": "ULK2 (Homo sapiens, UniProt Q8IYT8)", "observed": "cell-free assay", "method": "competition with immobilised ligand", "remaining binding [%]": 70.8}
{"target": "FLT3 (Homo sapiens, UniProt P36888, F691L/ITD)", "observed": "cell-free assay", "method": "competition with immobilised ligand", "remaining binding [%]": 63}
{"target": "MYLK3 (Homo sapiens, UniProt Q32MK0)", "observed": "cell-free assay", "method": "competition with immobilised ligand", "remaining binding [%]": 72.8}
{"target": "IKBKB (Homo sapiens, UniProt O14920)", "observed": "cell-free assay", "method": "competition with immobilised ligand", "remaining binding [%]": 73.2}
{"target": "NTRK3 (Homo sapiens, UniProt Q16288)", "observed": "cell-free assay", "method": "competition with immobilised ligand", "remaining binding [%]": 76.3}
{"target": "Ribosomal protein S6 kinase alpha-6, N-terminal kinase domain (RPS6KA6, Homo sapiens, UniProt Q9UK32)", "observed": "cell-free assay", "method": "competition with immobilised ligand", "remaining binding [%]": 63.5}
{"target": "NEK2 (Homo sapiens, UniProt P51955)", "observed": "cell-free assay", "method": "competition with immobilised ligand", "remaining binding [%]": 100}
{"target": "DYRK2 (Homo sapiens, UniProt Q92630)", "observed": "cell-free assay", "method": "competition with immobilised ligand", "remaining binding [%]": 100}
{"target": "MAP3K12 (Homo sapiens, UniProt Q12852)", "observed": "cell-free assay", "method": "competition with immobilised ligand", "remaining binding [%]": 58.2}
{"target": "EIF2AK1 (Homo sapiens, UniProt Q9BQI3)", "observed": "cell-free assay", "method": "competition with immobilised ligand", "remaining binding [%]": 88}
{"target": "CDKL3 (Homo sapiens, UniProt Q8IVW4)", "observed": "cell-free assay", "method": "competition with immobilised ligand", "remaining binding [%]": 100}
{"target": "ZAP70 (Homo sapiens, UniProt P43403)", "observed": "cell-free assay", "method": "competition with immobilised ligand", "remaining binding [%]": 67.1}
{"target": "TESK1 (Homo sapiens, UniProt Q15569)", "observed": "cell-free assay", "method": "competition with immobilised ligand", "remaining binding [%]": 82.8}
{"data": "Study 4", "target": "Serine/threonine-protein kinase 26 (STK26, Homo sapiens, UniProt Q9P289)", "observed": "enzyme activity", "mode": "inhibitor", "tested at": "0.5 µM", "relative to": "control", "UniProt Q9P289, sequence (whole entry, looked up)": "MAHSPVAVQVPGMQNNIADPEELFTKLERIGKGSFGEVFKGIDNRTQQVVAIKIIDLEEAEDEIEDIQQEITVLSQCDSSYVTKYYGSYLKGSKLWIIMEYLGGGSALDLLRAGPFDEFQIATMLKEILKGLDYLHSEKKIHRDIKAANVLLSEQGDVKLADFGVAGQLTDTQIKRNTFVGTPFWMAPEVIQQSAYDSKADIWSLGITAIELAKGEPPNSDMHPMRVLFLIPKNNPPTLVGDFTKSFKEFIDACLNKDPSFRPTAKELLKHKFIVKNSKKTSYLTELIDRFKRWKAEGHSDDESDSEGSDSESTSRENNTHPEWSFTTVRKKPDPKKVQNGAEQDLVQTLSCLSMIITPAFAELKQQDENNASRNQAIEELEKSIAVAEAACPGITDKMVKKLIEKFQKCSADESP"}
{"SMILES": "COc1cc2c(Nc3ccc(Br)cc3F)ncnc2cc1OCC1CCN(C)CC1", "remaining activity [%]": 102}
{"SMILES": "N#C/C(=C(/N)SC1C=CC=CC1)c1cccc(C(O)c2ccncc2)c1 (centres unmarked)", "remaining activity [%]": 100}
{"SMILES": "O=C1NC(=O)/C(=C/c2ccc3c(c2)OC(F)(F)O3)S1", "remaining activity [%]": 86.8}
{"SMILES": "Nc1nc(Nc2ccc(S(N)(=O)=O)cc2)nn1C(=S)Nc1c(F)cccc1F", "remaining activity [%]": 4.54}
{"SMILES": "C[C@@H](N)[C@H]1CC[C@H](C(=O)Nc2ccncc2)CC1", "remaining activity [%]": 96.4}
{"SMILES": "CC(C)N(CCC(=O)c1ccc2ccccc2c1)Cc1ccccc1", "remaining activity [%]": 108}
{"SMILES": "Clc1ccc(Nc2nnc(Cc3ccncc3)c3ccccc23)cc1", "remaining activity [%]": 118}
{"SMILES": "O=Nc1c(-c2c(O)[nH]c3ccccc23)[nH]c2ccccc12", "remaining activity [%]": 75.3}
{"SMILES": "COc1cc2c(N3CCN(C(=O)Nc4ccc(OC(C)C)cc4)CC3)ncnc2cc1OCCCN1CCCCC1", "remaining activity [%]": 101}
{"SMILES": "NC(=O)c1cccc(-c2cc(Nc3ccc(OC(F)(F)F)cc3)ncn2)c1", "remaining activity [%]": 94.7}
{"SMILES": "FC(F)(F)c1ccc(/C=C/c2nc(COc3ccc(CCCCn4ccnn4)cc3)co2)cc1", "remaining activity [%]": 98}
{"SMILES": "O=C(c1ccccc1)c1ccc(N2CCOCC2)cc1O", "remaining activity [%]": 101}
{"SMILES": "N#CC(c1ccnc(NCCc2cccnc2)n1)c1nc2ccccc2s1 (centres unmarked)", "remaining activity [%]": 104}
{"SMILES": "NC(=O)c1ccc(-c2nc(-c3ccc4c(c3)OCCO4)c(-c3ccccn3)[nH]2)cc1", "remaining activity [%]": 88.3}
{"SMILES": "O=C(O)/C=C/c1cc(Br)c(Br)c(Br)c1Br", "remaining activity [%]": 88.7}
{"SMILES": "O=C1c2ccccc2-c2nc3nnnn3nc21", "remaining activity [%]": 91.8}
{"SMILES": "CCCCc1c(-c2ccc(O)cc2)[nH]c2nccnc12", "remaining activity [%]": 79.1}
{"SMILES": "CC(C)(C)c1nc2c3cc[nH]c(=O)c3c3cc(F)ccc3c2[nH]1", "remaining activity [%]": 70.9}
{"SMILES": "CCN(CC)CCCCN1c2ccccc2Oc2ccc(Cl)cc21", "remaining activity [%]": 98}
{"SMILES": "CC(C)n1cnc2c(Nc3cccc(Cl)c3)nc(NCCO)nc21", "remaining activity [%]": 87.9}
{"SMILES": "O=c1c(-c2ccc(F)cc2)c(-c2ccncc2)[nH]n1-c1ccc(Cl)cc1", "remaining activity [%]": 94.1}
{"SMILES": "c1cc(-c2cnn3cc(-c4ccc(OCCN5CCCCC5)cc4)cnc23)ccn1", "remaining activity [%]": 87.3}
{"SMILES": "CNc1cc2c(Nc3cccc(Br)c3)ncnc2cn1", "remaining activity [%]": 109}
